# Assay results from different studies.
# Parts stem from different laboratories: compare values within a part only.

# Block 1
# Target: RING finger protein unkempt homolog, zinc fingers 1-6, GST-SBP tag (UNK, Homo sapiens, UniProt Q9C0B0, residues 30-357)
# Chain of UniProt Q9C0B0 (30-357, looked up): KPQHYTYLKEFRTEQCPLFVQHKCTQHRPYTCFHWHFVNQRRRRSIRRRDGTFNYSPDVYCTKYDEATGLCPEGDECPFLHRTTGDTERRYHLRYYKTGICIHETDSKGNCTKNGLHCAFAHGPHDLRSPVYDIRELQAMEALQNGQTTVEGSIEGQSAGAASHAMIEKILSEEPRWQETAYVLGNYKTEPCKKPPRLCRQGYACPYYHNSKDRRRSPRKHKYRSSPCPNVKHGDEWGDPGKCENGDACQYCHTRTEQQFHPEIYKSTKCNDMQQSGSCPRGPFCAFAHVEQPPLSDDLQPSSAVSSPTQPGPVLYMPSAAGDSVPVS
# Method: RNA Bind-n-Seq
# Form: RNA
# Matrix: in vitro
# Tested at: not given
# Setting: RNA with constant flanks, human and mouse sites, ends assumed
# Relative to: input RNA pool
# Reading: higher = stronger binding
# All sequences stand within: GGGAGUUCUACAGUCCGACGAUC … CAACAGAGGAUUGAGCAUCA
Sequence,bound/input enrichment [ratio]
AUUAAAGUUUUUCAAAUCUGUAAACAAAGCAAAAAAGUAAAUUGUAGUCAUUUGAUUAUUUUUUAAAUUGGUGCUUUAUAUUUUGUUCUCACUCAGAGUAAAAGCUGCAAUUUAUUGUUC,0.563
CCAUCACAAAGAACCAAUGGCUCGUAACACCCAGCAGGGAAUAUGCUACCAAGACAAGAAUUAGGACUCACCGUGGGAAAACUGGACAAGAACUGAAAGAGGCAGCCUUGGAACCAUCAA,0.307
ACUGGAGUUGUGCACAGCACCGCAGCUAGUGGGCCUGGCUGGGGGUGCAGAAGGGCAGGGUAGUUCUUUCCAUUUCCCCUUGCAGCUACACUUACUUUCUCCCUGACUACCAAAUGGAGU,0.249
GCUGUAGUUUAUUUUCUAAAGAUGCCAAAGGAAACAAGAUUUUUCUUUAUUUAUUUUAAAUACCUGAAACCUCGUACUUUAUAUUUUGAAGUAAGGUGGGAUUGUGUGAAAAUGUGGAUG,1.43
ACCUGGGGCAUUCAGCCGGCGCCCAUGCCUGUGCCUGUGUGGGUGAUCAUCUUGGCAGUUCUCGCAGGGCUGCUGCUACUGGCUGUGUUGGUAUUUGUAAUGUACAGGAUGGGCUUUUUC,0.382
GCUGCCUCUGCCAGUGCUGAAUUCUUUGCUGACAUUGCCCUGGCUCCUAUGGAAGCUGCUAAGGUUCGAAUUCAAACCCAGCCAGGUUAUGCCAACACUUUGAGGGAUGCAGCUCCCAAA,0.122
GCGAGCAAAGUGCUGCUGUGCCAUGGGGAGCUGCGGAGCAAGAGUGGACAUAAACUUUACAUUUUCCUGUUUCAAGACAUCUUGGUUCUGACUCGGCCCGUCACACGGAACGAACGGCAC,0.109
AAAAUUGUCCGAUGCCAUGAACACAUAGAAAUCCUUACAGUAAAUGGAGAAUUACUGUUUUUUAGACAAAGAGAAGGGCCUUUUUAUCCAACUUUAAGAUUACUUCAUAAAUAUCCUUUU,5.8
CAAAUUCAUCUCUUUUUAUAUGUCCGAAAACGGCCGAGCUUUUCAGCAGUGGCUGGCUUGGCCGACUCUGCCGUCCCUGGCAGAGCGUUGUUACUGUUGCUCCUUAGCAGCUGCUGCCUG,0.585
UCACUUAGCUACUUUAGAUAACCUUGCAUUACCACUGGUCUGGCCACGUUUGUUAAAUCCUUAUACUGAUAUUCUUCUAAAGAGUAAAUCUCAUCAUUUUUCCAGACAAAUUUUGAGGGG,7.35
UCAUUGUAAAUUACCUUUGUGUGUACAUUUUUACUGUAUUUGAGACAUUUUUUGUGUGUGACUAGUUAAUUUUGCAGGAUGUGCCAUAUCAUUGAACGGAACUAAAGUCUGUGACAGUGG,0.519

# Block 2
# Target: Prothrombin, mature alpha-thrombin (F2, Homo sapiens, UniProt P00734)
# Method: aptamer microarray, sandwich
# Form: DNA with 2'F-ANA
# Matrix: in vitro
# Tested at: 200 nM
# Setting: whole 15-mer aptamer, many near background
# Added: Cy3 exosite-II aptamer, 400 nM
# Reading: higher = stronger binding
# Sequence: GGTTGGTGTGGTTGG
Modification,mean fluorescence intensity
2'F-ANA at 2 3 4 6 8 11 12,803 a.u.
2'F-ANA at 1 3 5 7,63 a.u.
2'F-ANA at 1 7 8 10 11 14 15,47.1 a.u.
2'F-ANA at 3 4 6 8 9 11 12 14,295 a.u.
2'F-ANA at 2 6 8 9 11 15,323 a.u.
2'F-ANA at 1 3 5 6 8 11 12 13,85.4 a.u.
2'F-ANA at 2 6 7 8 12 14 15,206 a.u.
2'F-ANA at 2 3 4 5 7 8 12 13 15,147 a.u.
2'F-ANA at 1 3 4 5 8 9 11 13 14,45.7 a.u.
2'F-ANA at 3 4 5 6 9 12 15,207 a.u.
2'F-ANA at 4 7 9 14,91.1 a.u.
2'F-ANA at 1 2 3 4 5 6 8 9 11 14,47.5 a.u.
2'F-ANA at 2 12,895 a.u.
2'F-ANA at 1 3 5 6 8 9 10 11 12 13 14 15,58.3 a.u.
2'F-ANA at 1 2 3 4 11 14 15,63.4 a.u.
2'F-ANA at 2 8 9 10 13,111 a.u.
2'F-ANA at 1 2 9 11,139 a.u.
2'F-ANA at 1 2 4 7 8 9 10 13 14,49.9 a.u.
2'F-ANA at 1 2 4 6 9 12 15,296 a.u.
2'F-ANA at 1 2 4 5 6 7 9 10 12 15,76.4 a.u.
2'F-ANA at 1 4 5 7 8 9 10 15,64.1 a.u.
2'F-ANA at 1 2 3 5 9 10 11 14,45.7 a.u.
2'F-ANA at 4 5 7 8 9,212 a.u.
2'F-ANA at 1 4 5 6 9 10 11 15,51.5 a.u.
2'F-ANA at 3 4 9 10 13,256 a.u.

# Block 3
# Target: RNA binding protein fox-1 homolog 2, RRM domain, GST-SBP tag (RBFOX2, Homo sapiens, UniProt O43251-10, residues 100-194)
# Method: RNA Bind-n-Seq
# Form: RNA
# Matrix: in vitro
# Tested at: 365 nM
# Setting: natural RNA segment, single round, ends assumed
# Relative to: no-protein control
# Reading: higher = stronger binding
# All sequences stand within: GGGAGUUCUACAGUCCGACGAUC … UGGAAUUCUCGGGUGCCAA
# Target sequence (chain): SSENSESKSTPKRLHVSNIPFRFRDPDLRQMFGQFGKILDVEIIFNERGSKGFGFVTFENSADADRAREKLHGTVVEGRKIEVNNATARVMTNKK
Sequence,RBNS enrichment (R)
ACUGACGCACGGCAGGAGAUUUUUGUUUUUGUUUUCCUGUAUAUGAAAUGUUUUUCAAACCAUCCUCUCCUCAGGCCACCACCCCUUACCCUAACCCAUCACGCCCUGGU,3.95
UUCACUGAGUAUCAAAACUGCCAAGAAGGGUAACUAAGGUUCCUAAACUGUAAGAUGAGCAGGAGAUGAUCACUGGGAGAGAAAGCAUACUGGAUUGAAGGAAGGGCUGU,0.587
UGGUUCCAAACCAGAUUUCCUGUGAUUCUAUACUAAUAAUUUUUGAUAUAACCCUUUGCUUCUUAUAAUGAGUGCGAUAUAUGUUGUCGAGGCUGUUCUUCAAGAAUUAA,0.452
GUCUAUAAAGGCCAUUACAGACCCAAGGCUGUUUUGCAGUUUUCAUAUGUUGUUUGCUGAAGUCAUUGUAAUUUUUUUUGCCUGCUUUGCCUUUUUUUCUACAGGAGUUU,1.8
UGAACUCAAAUGAGGUUUCCUGGGUAAUGUGACACCUGCAGAAACUAUAGAGCGUCAUUUAUACGUAGUUUGGCAGAAACCACUUACGGCUGAUGAUGCGCAACCCUGCU,0.447
CCUGUGCCCAAUUUUGGAGUUUGAGAGGGUUGUUGGUAAUAAAUGUAUGAUGUACACUUCAAACCUAGUCGUGUUUCAUGUAAGGCGUGUUUUUGGAAUCUGUUUGCAGA,1.1
GGGCCAGACAGCAGCUCCCUGUCAGACGGCCAACAAGAGUUCUCUGGAAUGCUUGUGAGUCCGUUCCCACAGGCUCACAGUGUCAGGAGAGAGUGGCAGAUGCUCCAGUU,0.392
CCACCUCCUGCAGCAGCAGCAGUACAAGGGACUGGCUAGGAUGGAGUCAGGCAGCUCACACUGGACCAGUGUGGACCUUCCUUCCUCCCAUGGCAUGUGCAAGUAGGUCU,7.54
GUUUCUAAAAAAUGAACAUGAAAAAAAUAAGGUAUUUUCUCCCUAGCUUCUCAUUACAGUAUUUCUAAUUGCUUCACACUUUACAGUUUUAAUACAAAGUACAAGCUCUA,0.509
UAUUUAUAGUCCCUCCUAUCAAACAAUUACAGAGCACAAUGAUUGUCAUUGGGUAUAUAUGUAUUUACUCUCUAUUAUUGGGCAUAAAGGUGGCUUCUGCUCCAGAACUC,0.421
UAUGUGAACAGUGAGAUGGCCGUUUCUGACUUGUAGAGAAAUUUUAAUAAACCUGGUUUCGUAAAUAGGUGUGGUGAAUUUCUUUCGAGUUCCAUCUGCUUUGCCUUUUG,0.876
CCCCAGGAGGACAGAUCAUCAUCCACGGCUCACCUGUGCCUGGGCACAUCUUGGAGAGCUUGUGGACAUACUAUCUUUCAAUGAAGUAUAUUCAAAGGAUAUUUAUAUUG,0.238

# Block 4
# Target: Histone acetyltransferase KAT6A, both winged helices, GST fusion (KAT6A, Homo sapiens, UniProt Q92794, residues 1-181)
# Method: protein binding microarray
# Form: double-stranded DNA, one strand shown
# Matrix: in vitro
# Tested at: not given
# Setting: 8-mer, flanks averaged, mean of 2 arrays, mostly near background
# Relative to: not given
# Reading: higher = stronger binding
# Construct (chain): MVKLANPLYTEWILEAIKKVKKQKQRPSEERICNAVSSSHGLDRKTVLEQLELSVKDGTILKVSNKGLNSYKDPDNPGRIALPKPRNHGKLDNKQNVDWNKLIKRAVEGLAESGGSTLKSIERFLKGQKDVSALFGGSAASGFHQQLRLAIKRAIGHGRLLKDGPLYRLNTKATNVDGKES
Sequence,E-score
ACCGGCAA,0.24
ACACCGCA,0.0645
CGTAACAG,0.0621
GTTAGTCA,0.065
TATTGTGA,-0.0549
AAAACCCC,-0.129
ATTCCTTA,-0.179
AACCAGTC,0.0389
AGGGCATA,-0.256
ATGTGCAG,-0.146
AGACCTCG,0.0648
AGTAGTGC,-0.0266
ACATCACA,-0.145
GGATCTAA,0.031
CTCTCAAA,-0.136
AATAATCA,0.0791
AGCCAGTC,-0.16
ACGGTCAG,0.0938
GCGAGAAA,0.0109
ATATAATG,-0.134
AGGTGCCG,0.206
AGGAACCC,-0.157
GTGGAAAC,-0.124

# A few entries again (block 1):
Sequence,bound/input enrichment [ratio]
ACCUGGGGCAUUCAGCCGGCGCCCAUGCCUGUGCCUGUGUGGGUGAUCAUCUUGGCAGUUCUCGCAGGGCUGCUGCUACUGGCUGUGUUGGUAUUUGUAAUGUACAGGAUGGGCUUUUUC,0.382
ACUGGAGUUGUGCACAGCACCGCAGCUAGUGGGCCUGGCUGGGGGUGCAGAAGGGCAGGGUAGUUCUUUCCAUUUCCCCUUGCAGCUACACUUACUUUCUCCCUGACUACCAAAUGGAGU,0.249
AUUAAAGUUUUUCAAAUCUGUAAACAAAGCAAAAAAGUAAAUUGUAGUCAUUUGAUUAUUUUUUAAAUUGGUGCUUUAUAUUUUGUUCUCACUCAGAGUAAAAGCUGCAAUUUAUUGUUC,0.563
GCUGCCUCUGCCAGUGCUGAAUUCUUUGCUGACAUUGCCCUGGCUCCUAUGGAAGCUGCUAAGGUUCGAAUUCAAACCCAGCCAGGUUAUGCCAACACUUUGAGGGAUGCAGCUCCCAAA,0.122
AAAAUUGUCCGAUGCCAUGAACACAUAGAAAUCCUUACAGUAAAUGGAGAAUUACUGUUUUUUAGACAAAGAGAAGGGCCUUUUUAUCCAACUUUAAGAUUACUUCAUAAAUAUCCUUUU,5.8
GCGAGCAAAGUGCUGCUGUGCCAUGGGGAGCUGCGGAGCAAGAGUGGACAUAAACUUUACAUUUUCCUGUUUCAAGACAUCUUGGUUCUGACUCGGCCCGUCACACGGAACGAACGGCAC,0.109
GCUGUAGUUUAUUUUCUAAAGAUGCCAAAGGAAACAAGAUUUUUCUUUAUUUAUUUUAAAUACCUGAAACCUCGUACUUUAUAUUUUGAAGUAAGGUGGGAUUGUGUGAAAAUGUGGAUG,1.43
CCAUCACAAAGAACCAAUGGCUCGUAACACCCAGCAGGGAAUAUGCUACCAAGACAAGAAUUAGGACUCACCGUGGGAAAACUGGACAAGAACUGAAAGAGGCAGCCUUGGAACCAUCAA,0.307
CAAAUUCAUCUCUUUUUAUAUGUCCGAAAACGGCCGAGCUUUUCAGCAGUGGCUGGCUUGGCCGACUCUGCCGUCCCUGGCAGAGCGUUGUUACUGUUGCUCCUUAGCAGCUGCUGCCUG,0.585
